Measurements gathered from unrelated publications.
Protocols differ between the studies behind these lines. “And” joins repeats or separate records; there may be more than shown. ± gives the spread as reported. Converted amounts (≈) assume the structure as drawn.

Structure (SMILES)	organism	test	system	conditions	how to read	quantity	result
Cc1ccc2nc(-c3ccccc3)cn2c1	Leishmania infantum		macrophages, MHOM/MA(BE)/67/ITMAP263, amastigote			IC50	> 64000 nM
Cc1cc(Nc2ccc(S(F)(F)(F)(F)F)cc2)n2nc(C(C)(F)F)nc2n1	Plasmodium falciparum		infected patients	dose not given		time to clear 99% of initial parasitaemia	2 days
CCc1nn(C)c2nc(-c3ccc(C(=O)O)cc3)nc(NCc3ccc(F)cc3)c12	Cryptosporidium parvum		HCT-8	6 x EC90, 3 h	relative to: DMSO control	parasite number	100% and 81.7% and 98.8% and 93.7%
N=C(N)c1cccc(OCc2ccc(COc3cccc(C(=N)N)c3)cc2)c1	Escherichia coli		ATCC 25922	concentration not given, added: rifampicin		MIC in combination	25 µg/mL
Nc1ccc(-c2c(-c3ccccn3)nc3n2CCC3)cc1	Leishmania infantum		macrophages, MHOM/MA(BE)/67/ITMAP263, amastigote			IC50	1360 nM and 2260 nM
COc1cc(NS(=O)(=O)c2ccc([N+](=O)[O-])cc2)cc(OC)c1	Leishmania infantum	intracellular amastigote growth	U-937 macrophages and HeLa		relative to: IC50 HeLa over IC50 amastigotes	selectivity index	> 1.9
Oc1cc(O)c2c(c1)O[C@H](c1cc(O)c(O)c(O)c1)[C@@H](O)C2	Streptococcus gordonii	broth microdilution				MBC/MIC ratio	4
Cc1ccc(-c2nc3ccccc3s2)cc1NC(=O)c1ccc(F)cc1F	Leishmania mexicana	amastigote growth	J774.A1 macrophages			EC50	> 10000 nM
CC(C)n1ncc2c(C(=O)NCC3(C)CNC3)cc(C3CC3)nc21	Enterovirus D68	viral replication	RD, recombinant wild-type US/MO/14-18947	10 µM	relative to: untreated	plaque area	0%
COc1ccc(/C=C2\NC(=S)N(c3ccccc3)C2=O)c(OC)c1	Bacillus cereus		ATCC 14579	concentration not given		inhibition zone diameter	14 ± 0.15 mm
COc1ccnc(-c2nc3ccccn3c2N(C)c2ccc(F)cc2)c1	Leishmania infantum		macrophages, MHOM/MA(BE)/67/ITMAP263, amastigote			IC50	630 nM and 450 nM
C[C@@H]1O[C@@H](OC[C@H]2O[C@@H](Oc3c(-c4ccc(O)c(O)c4)oc4cc(O)cc(O)c4c3=O)[C@H](O)[C@@H](O)[C@@H]2O)[C@H](O)[C@H](O)[C@H]1O	human immunodeficiency virus 1	viral replication	TZM-bl cells, NL4-3 (CXCR4-tropic)	48 h		IC50	> 100000 nM
COc1ccc(-c2nc3ccccn3c2Nc2ccc(F)cc2)nc1	Leishmania infantum		macrophages, MHOM/MA(BE)/67/ITMAP263, amastigote			IC50	5660 nM and 5060 nM
COC(=O)[C@@H](NCc1cc2ccccc2nc1OCc1ccccc1)C(C)C	Pseudomonas aeruginosa			4 µg/mL, without pentamidine	relative to: control	growth	97.2%
CC(=O)ON=C1C=CC(=C(C#N)c2ccccc2)C=C1	Candida parapsilosis	broth dilution	ATCC 22099	48 h, 37 °C		MFC	16 µg/mL (≈ 60.5 µM)
Cc1cc(OC(C)C)ccc1C(=O)C(C)(C)NC(=O)c1sccc1C	Globisporangium spinosum	mycelial growth	PSA medium	20 °C, suspension concentrate 400 g/L		EC50	> 50 µg/mL
Cc1nc2cc(-c3c(-c4ccccn4)nc4n3CCC4)ccc2s1	Leishmania infantum		macrophages, MHOM/MA(BE)/67/ITMAP263, amastigote			IC50	6350 nM and 1740 nM
O=C1C(Cl)=C(n2cncn2)C(=O)c2ccccc21	Bacillus cereus		MTCC 430	10 µg/mL		zone of inhibition	14 mm
Fc1cc(F)cc(N/N=C/c2ccc(-c3cccc(/C=N/Nc4cc(F)cc(F)c4)c3)cc2)c1	Candida and Aspergillus			concentration not given, strain panel		antifungal activity	inactive
COc1ccc(-c2nc3ccc(OC)cn3c2Nc2ccc(F)cc2)nc1	Leishmania infantum		macrophages, MHOM/MA(BE)/67/ITMAP263, amastigote			IC50	2690 nM and 2160 nM
